Assay results pooled from the literature.
Lines come from different studies, so protocols differ. “And” joins repeats or separate records; there may be more than shown. In brackets after ≈: the same amount, converted by molar mass.

SMILES | organism | test | system | setting | quantity | result
CC(C)C[C@H](NC(=O)[C@H](CCN)NC(=O)[C@H](CCN)NC(=O)[C@@H](Cc1ccccc1)NC(=O)[C@H](CC(C)C)NC(=O)[C@H](CCN)NC(=O)[C@H](CCN)NC(=O)[C@@H](CCN)NC(=O)[C@@H](N)CS)C(N)=O | Acinetobacter calcoaceticus | BHI agar spot plating |  | 24 h, 37 °C | MBC | 64 µM (≈ 63.6 µg/mL)
Cc1cc(C(=O)Nc2nc3cccc(C)c3n2[C@H]2CCCCN(C(=O)/C=C/CN(C)C)C2)ccn1 | Trypanosoma brucei brucei |  | 2T1 CLK1 C215S overexpressing | 0.09259 µM, 72 h | survival | 102% and 105% and 96.2% and 94.3% and 90.7%
C#CCN1C(=O)C(CC#C)(C(=O)OCC)Oc2ccccc21 (centres unmarked) | Setaria viridis |  | greenhouse | postemergence, 150 g ai/ha, 21 days | fresh weight inhibition | > 50%
CCN(CC)CCO.O=C(O)C(Cl)Cl | Chenopodium album | herbicidal activity |  | 15 mg/mL, 21 days, pre-emergence greenhouse | inhibition | 0%
CC(C)(C)OC(=O)N1CCN(c2ccc(-c3ccc4ncnc(Nc5ccc(OCc6cccc(F)c6)c(Cl)c5)c4c3)cc2)CC1 | Trypanosoma cruzi | intracellular amastigote growth | NIH 3T3, Tulahuen, β-galactosidase-expressing | 10 µM, 96 h | inhibition | 8%
CC(C)C[C@H](NC(=O)[C@@H](N)CO)C(=O)N[C@@H](Cc1c[nH]c2ccccc12)C(=O)N[C@@H](CCC(=O)O)C(=O)N[C@@H](CC(N)=O)C(=O)N[C@@H](Cc1ccccc1)C(=O)N[C@@H](CCCCN)C(N)=O | Gram-positive bacteria |  |  |  | geometric mean MIC | 256 µM
CN(C)c1nc(NCc2ccc(F)c(C(F)(F)F)c2)c(/N=N/c2ccc(Cl)cc2)c(N(C)C)n1 | Ostrinia furnacalis | leaf dipping |  | 500 mg/L, 96 h | mortality | 100%
CON(C(=O)c1cn(C)nc1C(F)F)C(C)Cc1c(Cl)cc(Cl)cc1Cl (centres unmarked) | Alternaria alternata | mycelial growth |  | 12 h | EC50 | 0.255 µg/mL (≈ 0.596 µM)
CC(C)[C@H]1NC(=O)[C@H](Cc2ccc(O)cc2)NC(=O)[C@@H](C(C)C)NC(=O)[C@@H](C)NC(=O)[C@H](CO)NC(=O)[C@H](Cc2c(-c3ccc(-c4ccc5ccccc5c4)cc3)[nH]c3ccccc23)NC(=O)[C@@H](CO)NC1=O | Mycobacterium marinum |  |  |  | MIC90 | 100 µM (≈ 99.5 µg/mL)
O=[N+]([O-])c1ccc(C2=[N+]([O-])c3ccccc3N3CCCN=C23)cc1 | Clostridioides difficile | microbial growth |  |  | MIC50 | 0.25 µg/mL (≈ 0.776 µM)
CC[C@H](C)[C@@H]1NC(=O)[C@H](CO)NC(=O)[C@H](CCCCN)NC(=O)[C@@H]2CSSC[C@@H](C(=O)N[C@@H](Cc3ccc(O)cc3)C(N)=O)NC(=O)[C@H](CCCCN)NC(=O)[C@@H]3CSSC[C@H](NC(=O)[C@H](CCCNC(=N)N)NC(=O)[C@H](CC(C)C)NC(=O)[C@H](CC(=O)O)NC(=O)[C@H](CC(=O)O)NC(=O)[C@H](CCC(=O)O)NC(=O)[C@H](CC(N)=O)NC(=O)[C@H](Cc4c[nH]c5ccccc45)NC(=O)C(C)(CC)NC(=O)CNC(=O)[C@H](CC(N)=O)NC(=O)[C@@H](NC(=O)CNC(=O)[C@H](Cc4ccccc4)NC(=O)CN)CSSC[C@H](NC(=O)[C@H](Cc4ccc(O)cc4)NC(=O)CNC(=O)CNC(=O)[C@H](CCCCN)NC(=O)[C@H](Cc4ccc(O)cc4)NC(=O)[C@H]4CCCN4C(=O)[C@@H]4CCCN4C1=O)C(=O)N[C@@H](C)C(=O)N[C@@H](CCCCN)C(=O)N1CCC[C@@H]1C(=O)NCC(=O)N[C@@H](Cc1ccccc1)C(=O)N[C@@H](C(C)C)C(=O)N3)C(=O)N[C@@H](Cc1c[nH]cn1)C(=O)N[C@@H](CC(N)=O)C(=O)N[C@@H](Cc1c[nH]cn1)C(=O)N2 (some centres unmarked) | Streptococcus pneumoniae |  | D39 | 24 h, 37 °C, 99.9% killing | MBC | 2 µM (≈ 8.92 µg/mL)

Excerpt of the above:
SMILES | organism | test | system | setting | quantity | result
CN(C)c1nc(NCc2ccc(F)c(C(F)(F)F)c2)c(/N=N/c2ccc(Cl)cc2)c(N(C)C)n1 | Ostrinia furnacalis | leaf dipping |  | 500 mg/L, 96 h | mortality | 100%
